{"data": "Measurements of several laboratories", "organism": "Escherichia coli", "note": "Each line is one published result; not all experiments were run side by side. Numbers after ± are the reported error."}
{"Molecule": "CC[C@H](C)[C@H](NC(=O)[C@H](CCCNC(=N)N)NC(=O)[C@H](CCCNC(=N)N)NC(=O)[C@@H]1CCCN1C(=O)[C@@H]1CCCN1C(=O)[C@H](CCCNC(=N)N)NC(=O)[C@@H]1CCCN1C(=O)[C@H](CCCNC(=N)N)NC(=O)[C@@H]1CCCN1C(=O)[C@H](CCCCN)NC(=O)[C@H](Cc1ccc(O)cc1)NC(=O)[C@@H]1CCCN1C(=O)[C@H](CCCNC(=N)N)NC(=O)[C@H](CCCCN)NC(=O)[C@H](CC(=O)O)NC(=O)[C@@H](N)C(C)C)C(=O)N[C@@H](Cc1ccc(O)cc1)C(=O)N[C@@H](CC(N)=O)C(=O)N[C@@H](CCCNC(=N)N)C(N)=O", "test": "bacterial growth", "test system": "JW0013", "MIC": "0.83 ± 0.42 µg/mL"}
{"Molecule": "CC(C)C[C@H](NC(=O)[C@H](CCCNC(=N)N)NC(=O)[C@@H]1CCCN1C(=O)[C@H](CCCNC(=N)N)NC(=O)[C@@H]1CCCN1C(=O)[C@@H]1CCCN1C(=O)[C@H](CCCNC(=N)N)NC(=O)[C@@H]1CCCN1C(=O)[C@H](CCC(N)=O)NC(=O)[C@@H]1CCCN1C(=O)[C@H](CCCNC(=N)N)NC(=O)[C@H](Cc1ccc(O)cc1)NC(=O)[C@@H](NC(=O)[C@@H]1CCCN1C(=O)[C@H](CCCNC(=N)N)NC(=O)[C@H](CC(N)=O)NC(=O)[C@H](CC(N)=O)NC(=O)CN)C(C)C)C(=O)O", "test": "broth microdilution", "test system": "BW25113 parental, Mueller-Hinton broth", "conditions": "18 h, 37 °C", "MIC": "0.062 ± 0.027 µM"}
{"Molecule": "CC(C)C[C@H](NC(=O)[C@H](Cc1ccccc1)NC(=O)[C@H](CCCCN)NC(=O)[C@@H](N)CCCCN)C(=O)NCC(=O)N[C@@H](CCCCN)C(=O)N[C@@H](Cc1c[nH]c2ccccc12)C(=O)N[C@@H](CCCCN)C(=O)N[C@@H](CC(C)C)C(=O)N[C@@H](CCCNC(=N)N)C(=O)N[C@@H](Cc1ccccc1)C(=O)NCC(=O)N[C@@H](Cc1c[nH]c2ccccc12)C(N)=O", "test": "broth microdilution", "test system": "ATCC 25922, LB medium", "conditions": "16 to 20 h, 37 °C", "MIC": "12.5 µg/mL"}
{"Molecule": "CC[C@H](C)[C@H](NC(=O)[C@H](CC(=O)O)NC(=O)[C@H](Cc1ccccc1)NC(=O)[C@H](CC(C)C)NC(=O)CN)C(=O)N[C@H](C(=O)N[C@@H](CCCCN)C(=O)N[C@@H](CCCCN)C(=O)N[C@H](C(=O)N[C@H](C(=O)N[C@@H](CCCCN)C(=O)N[C@@H](CC(C)C)C(=O)N[C@@H](CC(C)C)C(=O)N[C@@H](CCCCN)C(N)=O)C(C)C)C(C)C)C(C)C", "test system": "ATCC 25922, CAMHB", "conditions": "18 h, 37 °C", "MIC": "> 20 µM"}
{"Molecule": "KTLTGKTITLE", "test system": "peptide, DH5α, Luria broth", "conditions": "overnight, 37 °C", "MIC": "10 µM"}
{"Molecule": "CC[C@H](C)[C@H](NC(=O)[C@H](CCCNC(=N)N)NC(=O)[C@@H](N)CCCNC(=N)N)C(=O)N[C@@H](CCCCN)C(=O)N[C@@H](CCCCN)C(=O)N[C@@H](CCCNC(=N)N)C(=O)N1CCC[C@H]1C(=O)N1CCC[C@H]1C(=O)N[C@@H](CCCNC(=N)N)C(=O)N[C@@H](CC(C)C)C(=O)N1CCC[C@H]1C(=O)N[C@@H](CCCNC(=N)N)C(=O)N1CCC[C@H]1C(=O)N[C@@H](CCCNC(=N)N)C(=O)N1CCC[C@H]1C(=O)N[C@@H](CCCCN)C(=O)O", "test system": "JW0368 ΔsbmA", "conditions": "18 h, 37 °C, 12.5% Mueller-Hinton broth", "MIC": "0.06 ± 0.014 µM"}
{"Molecule": "CC[C@H](C)[C@H](NC(=O)[C@H](CCCNC(=N)N)NC(=O)[C@@H]1CCCN1C(=O)[C@H](Cc1c[nH]cn1)NC(=O)[C@@H]1CCCN1C(=O)[C@@H]1CCCN1C(=O)[C@H](CCCNC(=N)N)NC(=O)[C@@H]1CCCN1C(=O)[C@H](CCC(N)=O)NC(=O)[C@@H]1CCCN1C(=O)[C@@H](NC(=O)[C@H](Cc1ccc(O)cc1)NC(=O)[C@@H](NC(=O)[C@@H]1CCCN1C(=O)[C@H](CCCNC(=N)N)NC(=O)[C@H](CC(N)=O)NC(=O)[C@H](CC(N)=O)NC(=O)CN)C(C)C)[C@@H](C)CC)C(=O)O", "test": "broth microdilution", "test system": "K12", "conditions": "37 °C", "MIC": "> 100 µM"}
{"Molecule": "CC[C@H](C)[C@H](NC(=O)[C@H](Cc1ccc(O)cc1)NC(=O)[C@@H](NC(=O)[C@@H]1CCCN1C(=O)[C@H](CCCNC(=N)N)NC(=O)[C@H](CC(N)=O)NC(=O)[C@H](CC(N)=O)NC(=O)CN)C(C)C)C(=O)N1CCC[C@H]1C(=O)N[C@@H](CCC(N)=O)C(=O)N1CCC[C@H]1C(=O)N[C@@H](CCCNC(=N)N)C(=O)N1CCC[C@H]1C(=O)N1CCC[C@H]1C(=O)N[C@@H](Cc1c[nH]cn1)C(=O)N1CCC[C@H]1C(=O)N[C@@H](CCCNC(=N)N)C(=O)N[C@@H](CC(C)C)C(=O)O", "test": "broth microdilution", "test system": "BW25113, 20% M9 medium", "MIC": "> 0.384 µM"}
{"Molecule": "CO/N=C(\\C(=O)N[C@@H]1C(=O)N2C(C(=O)O)=C(COC(C)=O)CS[C@H]12)c1csc(N)n1", "test system": "AmpC-overproducing clinical isolate", "conditions": "alone without inhibitor, third isolate", "MIC": "4 µg/mL"}
{"Molecule": "CC(C)C[C@H](NC(=O)[C@H](CCC(=O)O)NC(=O)[C@H](CCC(=O)O)NC(=O)[C@@H](NC(=O)[C@H](CCCNC(=N)N)NC(=O)[C@H](CCC(N)=O)NC(=O)[C@@H](N)CCCNC(=N)N)C(C)C)C(=O)N[C@@H](CO)C(=O)N[C@@H](CCCCN)C(=O)N[C@@H](Cc1ccccc1)C(=O)N[C@@H](CO)C(=O)N[C@@H](CCCCN)C(=O)N[C@@H](CCCCN)C(=O)NCC(=O)N[C@@H](C)C(=O)N[C@@H](C)C(=O)N[C@@H](C)C(=O)N[C@@H](CCCNC(=N)N)C(=O)N[C@@H](CCCNC(=N)N)C(=O)N[C@@H](CCCNC(=N)N)C(=O)N[C@@H](CCCCN)C(=O)O", "test": "broth microdilution", "test system": "K12", "conditions": "37 °C", "MIC": "> 84 µM"}
{"Molecule": "C[C@@H](O)[C@H]1C(=O)N2C(C(=O)O)=C(SCCN=CN)C[C@H]12", "test system": "clinical isolates, blaNDM-1", "MIC": "8 µg/mL"}
{"Molecule": "CC(C)C[C@H](NC(=O)[C@H](CCCNC(=N)N)NC(=O)[C@@H]1CCCN1C(=O)[C@H](Cc1c[nH]cn1)NC(=O)[C@@H]1CCCN1C(=O)[C@@H]1CCCN1C(=O)[C@H](CCCNC(=N)N)NC(=O)[C@@H]1CCCN1C(=O)[C@H](CCC(N)=O)NC(=O)[C@@H]1CCCN1C(=O)[C@H](CCCNC(=N)N)NC(=O)[C@H](Cc1ccc(O)cc1)NC(=O)[C@@H](NC(=O)[C@@H]1CCCN1C(=O)[C@H](CCCCN)NC(=O)[C@H](CC(N)=O)NC(=O)[C@H](CC(N)=O)NC(=O)CN)C(C)C)C(=O)O", "test system": "JW0368 ΔsbmA", "conditions": "18 h, 37 °C, 12.5% Mueller-Hinton broth", "MIC": "0.096 ± 0.023 µM"}
{"Molecule": "CC(C)C[C@H](NC(=O)[C@H](Cc1c[nH]c2ccccc12)NC(=O)[C@H](CCCNC(=N)N)NC(=O)[C@H](CC(C)C)NC(=O)[C@H](CCCNC(=N)N)NC(=O)[C@H](Cc1c[nH]c2ccccc12)NC(=O)[C@H](Cc1c[nH]c2ccccc12)NC(=O)[C@H](CC(C)C)NC(=O)[C@H](CCCCN)NC(=O)[C@H](Cc1c[nH]c2ccccc12)NC(=O)[C@@H](NC(=O)[C@@H](N)CC(C)C)C(C)C)C(=O)N[C@@H](CCCCN)C(N)=O", "test system": "ATCC 25922", "conditions": "1 h, 37 °C, non-dividing cells in PBS", "MIC": "≥ 100 µg/mL"}
{"Molecule": "CC[C@H](C)[C@H](NC(=O)CNC(=O)[C@H](CCCNC(=N)N)NC(=O)[C@H](Cc1ccccc1)NC(=O)[C@@H](NC(=O)[C@H](Cc1c[nH]cn1)NC(=O)[C@H](Cc1c[nH]cn1)NC(=O)[C@H](Cc1ccccc1)NC(=O)[C@@H](N)Cc1ccccc1)[C@@H](C)CC)C(=O)N[C@H](C(=O)N[C@@H](Cc1c[nH]cn1)C(=O)N[C@H](C(=O)NCC(=O)N[C@@H](CCCCN)C(=O)N[C@H](C(=O)N[C@@H](CCCCN)C(=O)N[C@@H](Cc1c[nH]cn1)C(=O)N[C@@H](CCCNC(=N)N)C(=O)N[C@@H](CC(C)C)C(=O)N[C@H](C(=O)N[C@H](C(=O)NCC(N)=O)[C@@H](C)O)C(C)C)[C@@H](C)O)C(C)C)C(C)C", "test": "broth microdilution", "test system": "ATCC 25922", "conditions": "18 h, 37 °C", "MIC": "3.1 µg/mL"}
{"Molecule": "CC[C@H](C)[C@H](NC(=O)[C@@H]1CCCN1C(=O)[C@H](CCCCN)NC(=O)[C@@H]1CCCN1C(=O)[C@@H]1CCCN1C(=O)[C@@H](NC(=O)[C@@H]1CCCN1C(=O)[C@H](CCCNC(=N)N)NC(=O)[C@@H]1CCCN1C(=O)[C@H](CCCNC(=N)N)NC(=O)[C@H](Cc1ccc(O)cc1)NC(=O)[C@H](CO)NC(=O)CNC(=O)[C@H](CCCCN)NC(=O)[C@H](CC(=O)O)NC(=O)[C@@H](N)C(C)C)[C@@H](C)O)C(=O)N[C@@H](Cc1ccc(O)cc1)C(=O)N[C@@H](CC(N)=O)C(=O)N[C@@H](CCCNC(=N)N)C(=O)N[C@@H](CC(N)=O)C(=O)O", "test system": "JW0368 ΔsbmA", "conditions": "18 h, 37 °C, 12.5% Mueller-Hinton broth", "MIC": "0.3 ± 0.07 µM"}
{"Molecule": "gentamicin", "test": "broth microdilution", "test system": "ATCC 25922", "conditions": "24 h, 37 °C", "MIC": "0.5 µg/mL"}
{"Molecule": "CC[C@H](C)[C@H](NC(=O)[C@H](CCCNC(=N)N)NC(=O)[C@H](CCCCN)NC(=O)[C@H](CC(C)C)NC(=O)[C@H](Cc1ccccc1)NC(=O)[C@H](CCCNC(=N)N)NC(=O)[C@H](C)NC(=O)[C@@H](N)C(C)C)C(=O)N[C@H](C(=O)N[C@@H](CCCCN)C(=O)N[C@@H](C)C(=O)N[C@@H](CC(C)C)C(=O)N[C@@H](Cc1ccccc1)C(N)=O)[C@@H](C)CC", "test": "broth microdilution", "test system": "ATCC 25922, LB medium", "conditions": "16 to 20 h, 37 °C", "MIC": "6.25 µg/mL"}
{"Molecule": "CC[C@H](C)[C@H](NC(=O)[C@@H]1CCCN1C(=O)[C@H](Cc1c[nH]cn1)NC(=O)[C@H](CCCCN)NC(=O)[C@@H]1CCCN1C(=O)[C@@H](N)CCCNC(=N)N)C(=O)N[C@@H](CCCCN)C(=O)N[C@@H](Cc1c[nH]cn1)C(=O)N[C@@H](CCC(N)=O)C(=O)NCC(=O)N[C@@H](CC(C)C)C(=O)N1CCC[C@H]1C(=O)N[C@@H](CCC(N)=O)C(=O)N[C@@H](CCC(=O)O)C(=O)N[C@H](C(=O)N[C@@H](CC(C)C)C(=O)N[C@@H](CC(N)=O)C(=O)N[C@@H](CCC(=O)O)C(=O)N[C@@H](CC(N)=O)C(=O)N[C@@H](CC(C)C)C(=O)N[C@@H](CC(C)C)C(=O)N[C@@H](CCCNC(=N)N)C(=O)N[C@@H](Cc1ccccc1)C(=O)O)C(C)C", "test": "broth microdilution", "test system": "K12", "conditions": "37 °C", "MIC": "> 100 µM"}
{"note": "Repeated from above:"}
{"Molecule": "CC(C)C[C@H](NC(=O)[C@H](CCCNC(=N)N)NC(=O)[C@@H]1CCCN1C(=O)[C@H](Cc1c[nH]cn1)NC(=O)[C@@H]1CCCN1C(=O)[C@@H]1CCCN1C(=O)[C@H](CCCNC(=N)N)NC(=O)[C@@H]1CCCN1C(=O)[C@H](CCC(N)=O)NC(=O)[C@@H]1CCCN1C(=O)[C@H](CCCNC(=N)N)NC(=O)[C@H](Cc1ccc(O)cc1)NC(=O)[C@@H](NC(=O)[C@@H]1CCCN1C(=O)[C@H](CCCCN)NC(=O)[C@H](CC(N)=O)NC(=O)[C@H](CC(N)=O)NC(=O)CN)C(C)C)C(=O)O", "test system": "JW0368 ΔsbmA", "conditions": "18 h, 37 °C, 12.5% Mueller-Hinton broth", "MIC": "0.096 ± 0.023 µM"}
{"Molecule": "CC(C)C[C@H](NC(=O)[C@H](Cc1c[nH]c2ccccc12)NC(=O)[C@H](CCCNC(=N)N)NC(=O)[C@H](CC(C)C)NC(=O)[C@H](CCCNC(=N)N)NC(=O)[C@H](Cc1c[nH]c2ccccc12)NC(=O)[C@H](Cc1c[nH]c2ccccc12)NC(=O)[C@H](CC(C)C)NC(=O)[C@H](CCCCN)NC(=O)[C@H](Cc1c[nH]c2ccccc12)NC(=O)[C@@H](NC(=O)[C@@H](N)CC(C)C)C(C)C)C(=O)N[C@@H](CCCCN)C(N)=O", "test system": "ATCC 25922", "conditions": "1 h, 37 °C, non-dividing cells in PBS", "MIC": "≥ 100 µg/mL"}
